Assay results collected from several papers.
Numbered parts are unrelated; each lists some results of a single study.
UniProt Q12866, sequence (whole entry, looked up): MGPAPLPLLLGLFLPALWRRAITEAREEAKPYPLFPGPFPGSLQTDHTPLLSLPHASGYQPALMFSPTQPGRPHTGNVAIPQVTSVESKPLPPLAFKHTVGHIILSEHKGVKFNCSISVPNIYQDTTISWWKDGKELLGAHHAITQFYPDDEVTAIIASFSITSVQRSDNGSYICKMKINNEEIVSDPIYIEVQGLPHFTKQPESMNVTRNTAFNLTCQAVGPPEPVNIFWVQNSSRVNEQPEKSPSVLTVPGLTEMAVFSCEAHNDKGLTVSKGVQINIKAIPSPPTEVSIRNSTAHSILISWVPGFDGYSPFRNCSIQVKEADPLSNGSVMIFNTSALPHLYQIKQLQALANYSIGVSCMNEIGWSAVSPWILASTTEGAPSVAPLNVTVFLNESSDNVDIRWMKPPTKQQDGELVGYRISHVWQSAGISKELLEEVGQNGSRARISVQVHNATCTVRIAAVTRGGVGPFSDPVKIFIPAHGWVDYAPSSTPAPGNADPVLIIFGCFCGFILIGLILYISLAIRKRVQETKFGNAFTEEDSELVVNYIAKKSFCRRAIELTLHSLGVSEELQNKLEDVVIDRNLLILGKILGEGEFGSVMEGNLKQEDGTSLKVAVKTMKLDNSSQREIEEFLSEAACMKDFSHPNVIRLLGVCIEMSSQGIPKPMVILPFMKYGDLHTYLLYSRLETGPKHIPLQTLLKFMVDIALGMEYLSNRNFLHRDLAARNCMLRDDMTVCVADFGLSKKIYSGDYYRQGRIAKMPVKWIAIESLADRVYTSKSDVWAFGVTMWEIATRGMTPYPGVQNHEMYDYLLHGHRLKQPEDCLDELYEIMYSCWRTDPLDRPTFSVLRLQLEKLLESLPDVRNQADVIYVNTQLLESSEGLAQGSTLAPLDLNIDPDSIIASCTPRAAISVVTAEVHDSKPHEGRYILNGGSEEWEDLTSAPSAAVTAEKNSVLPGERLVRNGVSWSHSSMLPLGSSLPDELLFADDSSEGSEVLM
UniProt Q96PY6, sequence (whole entry, looked up): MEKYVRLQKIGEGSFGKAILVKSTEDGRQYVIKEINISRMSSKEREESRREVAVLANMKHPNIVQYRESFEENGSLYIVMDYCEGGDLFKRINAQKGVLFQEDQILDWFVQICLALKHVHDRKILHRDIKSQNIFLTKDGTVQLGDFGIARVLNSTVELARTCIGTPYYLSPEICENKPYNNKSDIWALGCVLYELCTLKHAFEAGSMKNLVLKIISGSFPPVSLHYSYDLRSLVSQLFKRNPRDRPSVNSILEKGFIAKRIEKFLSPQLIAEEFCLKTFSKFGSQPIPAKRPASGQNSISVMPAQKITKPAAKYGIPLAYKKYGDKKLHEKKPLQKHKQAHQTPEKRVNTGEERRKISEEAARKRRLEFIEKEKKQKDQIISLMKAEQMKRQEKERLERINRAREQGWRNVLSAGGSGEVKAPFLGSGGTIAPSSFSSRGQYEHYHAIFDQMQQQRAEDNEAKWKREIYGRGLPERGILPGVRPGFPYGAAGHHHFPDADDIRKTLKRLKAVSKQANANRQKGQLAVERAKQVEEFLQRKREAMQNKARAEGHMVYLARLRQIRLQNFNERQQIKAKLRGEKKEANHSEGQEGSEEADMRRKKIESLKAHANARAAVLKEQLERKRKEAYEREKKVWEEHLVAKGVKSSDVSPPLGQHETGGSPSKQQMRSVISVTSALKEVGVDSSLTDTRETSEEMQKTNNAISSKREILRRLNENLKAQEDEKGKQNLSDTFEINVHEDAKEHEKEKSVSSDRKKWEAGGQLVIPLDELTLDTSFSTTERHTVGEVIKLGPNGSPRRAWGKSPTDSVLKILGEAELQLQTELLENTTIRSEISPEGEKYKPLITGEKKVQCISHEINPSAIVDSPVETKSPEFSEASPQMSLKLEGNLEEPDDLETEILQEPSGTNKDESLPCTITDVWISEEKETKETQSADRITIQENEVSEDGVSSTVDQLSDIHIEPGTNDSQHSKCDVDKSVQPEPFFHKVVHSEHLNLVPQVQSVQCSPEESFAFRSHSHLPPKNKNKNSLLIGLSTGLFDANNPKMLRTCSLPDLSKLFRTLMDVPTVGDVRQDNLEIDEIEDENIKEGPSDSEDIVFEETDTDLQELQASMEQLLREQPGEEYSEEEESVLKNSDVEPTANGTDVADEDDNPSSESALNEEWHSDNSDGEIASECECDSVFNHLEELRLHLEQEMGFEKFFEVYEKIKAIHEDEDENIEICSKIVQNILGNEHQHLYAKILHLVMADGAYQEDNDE
UniProt P35916, sequence (whole entry, looked up): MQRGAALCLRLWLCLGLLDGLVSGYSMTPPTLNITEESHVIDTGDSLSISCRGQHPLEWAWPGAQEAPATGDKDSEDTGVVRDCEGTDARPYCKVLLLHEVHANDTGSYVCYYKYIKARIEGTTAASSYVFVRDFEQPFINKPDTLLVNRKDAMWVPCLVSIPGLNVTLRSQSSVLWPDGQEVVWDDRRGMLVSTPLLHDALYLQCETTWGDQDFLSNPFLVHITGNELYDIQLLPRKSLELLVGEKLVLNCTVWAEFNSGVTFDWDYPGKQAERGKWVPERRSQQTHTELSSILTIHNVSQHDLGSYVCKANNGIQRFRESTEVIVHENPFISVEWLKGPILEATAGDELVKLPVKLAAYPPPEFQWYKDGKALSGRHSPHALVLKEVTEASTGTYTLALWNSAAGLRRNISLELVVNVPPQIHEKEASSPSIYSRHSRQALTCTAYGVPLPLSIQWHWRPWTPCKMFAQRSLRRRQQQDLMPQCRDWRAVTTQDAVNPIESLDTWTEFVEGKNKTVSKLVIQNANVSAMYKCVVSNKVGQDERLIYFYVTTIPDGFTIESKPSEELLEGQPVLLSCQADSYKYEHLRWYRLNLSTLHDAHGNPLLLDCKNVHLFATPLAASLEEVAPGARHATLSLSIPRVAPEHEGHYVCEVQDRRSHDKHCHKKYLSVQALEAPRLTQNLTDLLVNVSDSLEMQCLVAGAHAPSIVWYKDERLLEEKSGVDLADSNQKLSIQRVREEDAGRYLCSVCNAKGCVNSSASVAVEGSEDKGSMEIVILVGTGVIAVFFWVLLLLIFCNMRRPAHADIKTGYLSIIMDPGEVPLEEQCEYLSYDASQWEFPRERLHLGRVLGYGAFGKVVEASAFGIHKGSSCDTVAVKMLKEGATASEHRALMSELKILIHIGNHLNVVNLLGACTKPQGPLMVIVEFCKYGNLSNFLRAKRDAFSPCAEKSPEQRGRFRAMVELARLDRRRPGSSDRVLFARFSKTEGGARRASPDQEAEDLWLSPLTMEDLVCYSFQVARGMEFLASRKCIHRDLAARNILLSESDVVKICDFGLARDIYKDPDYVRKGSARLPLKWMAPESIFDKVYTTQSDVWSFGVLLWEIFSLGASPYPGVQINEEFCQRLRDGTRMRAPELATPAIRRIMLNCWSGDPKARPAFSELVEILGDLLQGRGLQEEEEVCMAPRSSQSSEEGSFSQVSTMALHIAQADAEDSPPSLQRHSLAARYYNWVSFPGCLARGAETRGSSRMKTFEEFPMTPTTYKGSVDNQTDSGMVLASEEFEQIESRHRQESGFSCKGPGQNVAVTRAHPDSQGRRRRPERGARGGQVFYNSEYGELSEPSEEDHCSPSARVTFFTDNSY
UniProt Q00535, sequence (whole entry, looked up): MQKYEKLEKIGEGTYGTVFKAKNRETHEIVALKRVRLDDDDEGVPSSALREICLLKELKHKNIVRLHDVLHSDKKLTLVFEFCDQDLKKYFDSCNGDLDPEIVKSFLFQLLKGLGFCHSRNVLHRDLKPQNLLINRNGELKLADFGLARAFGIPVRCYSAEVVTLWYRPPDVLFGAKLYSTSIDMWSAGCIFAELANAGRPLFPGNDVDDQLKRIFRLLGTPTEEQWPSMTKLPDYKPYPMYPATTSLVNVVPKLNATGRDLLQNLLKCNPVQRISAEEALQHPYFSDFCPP

Study 1
Compound: CC1=C(C#N)[C@@H](c2ccc3[nH]nc(C)c3c2)C(C#N)=C(c2ccc(Cl)cc2)N1
Concentration: 1 µM
Endpoint: remaining binding
target = PAK5 (Homo sapiens, UniProt Q9P286); test = cell-free assay, competition with immobilised ligand; value = 100%
target = CSNK1G1 (Homo sapiens, UniProt Q9HCP0); test = cell-free assay, competition with immobilised ligand; value = 100%
target = PTK2 (Homo sapiens, UniProt Q05397); test = cell-free assay, competition with immobilised ligand; value = 100%
target = Tyrosine-protein kinase ABL1, non-phosphorylated (ABL1, Homo sapiens, UniProt P00519, T315I); test = cell-free assay, competition with immobilised ligand; value = 100%
target = CDKL3 (Homo sapiens, UniProt Q8IVW4); test = binding, competition with immobilised ligand; value = 100%
target = Tyrosine-protein kinase ABL1, phosphorylated (ABL1, Homo sapiens, UniProt P00519, F317I); test = binding; value = 100%
target = MAP4K1 (Homo sapiens, UniProt Q92918); test = cell-free assay, competition with immobilised ligand; value = 93.1%
target = SYK (Homo sapiens, UniProt P43405); test = cell-free assay, competition with immobilised ligand; value = 100%
target = EGFR (Homo sapiens, UniProt P00533, G719C); test = cell-free assay, competition with immobilised ligand; value = 100%
target = GRK2 (Homo sapiens, UniProt P25098); test = cell-free assay, competition with immobilised ligand; value = 88.1%
target = CDK5 (Homo sapiens, UniProt Q00535); test = cell-free assay, competition with immobilised ligand; value = 100%
target = FLT4 (Homo sapiens, UniProt P35916); test = cell-free assay, competition with immobilised ligand; value = 89.5%
target = PTK2B (Homo sapiens, UniProt Q14289); test = cell-free assay, competition with immobilised ligand; value = 100%
target = LATS1 (Homo sapiens, UniProt O95835); test = cell-free assay, competition with immobilised ligand; value = 100%
target = DAPK2 (Homo sapiens, UniProt Q9UIK4); test = cell-free assay, competition with immobilised ligand; value = 100%
target = PIP5K1A (Homo sapiens, UniProt Q99755); test = cell-free assay, competition with immobilised ligand; value = 100%

Study 2
SMILES: CC[n+]1c(/C=C/N(C)c2ccccc2)n(-c2ccccc2)c2ccc(-c3nc4ccccc4s3)cc21
Effect on: enzyme activity
Mode: inhibitor
Concentration: 0.5 µM
Baseline: control
Endpoint: remaining activity
target = FRK (Homo sapiens, UniProt P42685); value = 97.1%
target = ACVR1B (Homo sapiens, UniProt P36896); value = 110%
target = MERTK (Homo sapiens, UniProt Q12866); value = 96.5%
target = FGFR1 (Homo sapiens, UniProt P11362); value = 97.4%
target = TEK (Homo sapiens, UniProt Q02763); value = 96%
target = MST1R (Homo sapiens, UniProt Q04912); value = 94.4%
target = MAP3K5 (Homo sapiens, UniProt Q99683); value = 100%
target = TAOK2 (Homo sapiens, UniProt Q9UL54); value = 97.7%
target = NEK1 (Homo sapiens, UniProt Q96PY6); value = 102%
target = ARAF (Homo sapiens, UniProt P10398); value = 102%
target = GRK7 (Homo sapiens, UniProt Q8WTQ7); value = 100%
target = JAK3 (Homo sapiens, UniProt P52333); value = 106%
target = MAP2K2 (Homo sapiens, UniProt P36507); value = 88.5%
target = WEE1 (Homo sapiens, UniProt P30291); value = 92.4%

Study 3
Target: TAR DNA-binding protein 43, full length, His tag (TARDBP, Homo sapiens, UniProt Q13148, residues 1-414)
Technique: RNA Bind-n-Seq
Molecule type: RNA
Medium: in vitro
Concentration: 20 nM
Notes: 6-mer, flanks averaged, single round
With: 150 mM KCl
Baseline: input library
Reading: higher = stronger binding
Endpoint: 6-mer enrichment (R)
Strand = GGGUGU; value = 3.3
Strand = GGCUAA; value = 1.04
Strand = GGCACG; value = 2.03
Strand = CGCCGA; value = 0.817
Strand = AAGCGG; value = 1.71
Strand = ACAAAU; value = 0.667
Strand = CCAUAA; value = 0.632
Strand = AAAGGG; value = 2.04

Study 4
Target: Sal-like protein 4, full length isoform A (SALL4, Homo sapiens, UniProt Q9UJQ4, residues 1-1053)
UniProt Q9UJQ4, sequence (whole entry, looked up): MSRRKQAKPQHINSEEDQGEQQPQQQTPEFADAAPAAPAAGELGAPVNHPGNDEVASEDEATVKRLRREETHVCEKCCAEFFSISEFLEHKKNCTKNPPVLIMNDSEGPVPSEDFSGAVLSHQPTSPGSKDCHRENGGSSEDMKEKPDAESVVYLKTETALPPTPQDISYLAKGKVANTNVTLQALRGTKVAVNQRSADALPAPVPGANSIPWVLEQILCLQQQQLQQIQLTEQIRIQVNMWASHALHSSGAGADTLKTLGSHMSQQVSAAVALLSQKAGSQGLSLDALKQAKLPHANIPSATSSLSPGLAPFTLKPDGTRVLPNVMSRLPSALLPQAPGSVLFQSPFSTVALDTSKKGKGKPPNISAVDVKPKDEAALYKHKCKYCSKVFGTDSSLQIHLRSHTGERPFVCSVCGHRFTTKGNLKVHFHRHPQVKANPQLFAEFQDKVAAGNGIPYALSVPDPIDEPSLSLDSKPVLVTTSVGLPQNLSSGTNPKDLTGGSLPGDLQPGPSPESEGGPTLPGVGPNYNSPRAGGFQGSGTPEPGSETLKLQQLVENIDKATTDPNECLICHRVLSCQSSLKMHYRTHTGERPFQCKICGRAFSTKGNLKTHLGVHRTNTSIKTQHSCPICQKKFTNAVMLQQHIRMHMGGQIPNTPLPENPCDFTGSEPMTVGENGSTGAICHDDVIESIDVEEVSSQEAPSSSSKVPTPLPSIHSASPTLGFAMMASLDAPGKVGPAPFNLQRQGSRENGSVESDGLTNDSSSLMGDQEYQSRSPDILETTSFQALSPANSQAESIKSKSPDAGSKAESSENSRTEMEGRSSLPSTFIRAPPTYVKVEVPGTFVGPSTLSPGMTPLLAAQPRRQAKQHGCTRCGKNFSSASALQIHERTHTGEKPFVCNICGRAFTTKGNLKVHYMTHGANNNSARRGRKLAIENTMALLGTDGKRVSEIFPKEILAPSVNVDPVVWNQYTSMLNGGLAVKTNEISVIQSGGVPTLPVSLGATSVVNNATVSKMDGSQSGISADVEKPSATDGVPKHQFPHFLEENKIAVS
Technique: universal PBM
Molecule type: double-stranded DNA, one strand shown
Medium: in vitro
Concentration: 600 nM
Notes: 8-mer, flanks averaged, mean of replicates
Reading: higher = stronger binding
Endpoint: E-score
Strand = AAAGCATA; value = 0.266
Strand = ACCGTTTG; value = -0.121
Strand = CATTTCAA; value = 0.344
Strand = AGAGTACC; value = -0.0002
Strand = CGCTGCAA; value = 0.0472
Strand = CATTCCCG; value = -0.0285
Strand = CGCGAGAA; value = -0.122
Strand = AAGCCCAA; value = 0.00407

Repeated from above (study 2):
target = GRK7 (Homo sapiens, UniProt Q8WTQ7); value = 100%
target = TEK (Homo sapiens, UniProt Q02763); value = 96%
target = MAP2K2 (Homo sapiens, UniProt P36507); value = 88.5%
